Assay results from different studies.
Parts stem from different laboratories: compare values within a part only.
Sequence of UniProt P08047 (whole entry, looked up): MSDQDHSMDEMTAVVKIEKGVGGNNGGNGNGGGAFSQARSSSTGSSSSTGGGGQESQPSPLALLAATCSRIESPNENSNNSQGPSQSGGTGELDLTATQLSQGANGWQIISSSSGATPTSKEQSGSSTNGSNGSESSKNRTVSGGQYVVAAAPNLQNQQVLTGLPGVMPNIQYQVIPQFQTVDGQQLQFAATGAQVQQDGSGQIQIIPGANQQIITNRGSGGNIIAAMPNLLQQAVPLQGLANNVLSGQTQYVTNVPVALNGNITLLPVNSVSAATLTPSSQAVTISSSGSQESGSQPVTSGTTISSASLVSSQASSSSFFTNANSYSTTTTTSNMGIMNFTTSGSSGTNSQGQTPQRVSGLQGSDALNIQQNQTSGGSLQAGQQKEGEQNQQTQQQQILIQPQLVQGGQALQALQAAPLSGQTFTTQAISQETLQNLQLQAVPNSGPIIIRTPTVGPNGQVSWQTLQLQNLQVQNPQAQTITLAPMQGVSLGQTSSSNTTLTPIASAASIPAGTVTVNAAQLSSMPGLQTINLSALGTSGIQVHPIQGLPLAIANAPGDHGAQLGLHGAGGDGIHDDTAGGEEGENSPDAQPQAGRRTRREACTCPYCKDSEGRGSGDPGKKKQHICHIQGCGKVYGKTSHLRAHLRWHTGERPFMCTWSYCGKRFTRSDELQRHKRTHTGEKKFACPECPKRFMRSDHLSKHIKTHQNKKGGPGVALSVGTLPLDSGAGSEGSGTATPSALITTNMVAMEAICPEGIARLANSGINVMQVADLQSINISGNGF
Sequence of UniProt P28147 (whole entry, looked up): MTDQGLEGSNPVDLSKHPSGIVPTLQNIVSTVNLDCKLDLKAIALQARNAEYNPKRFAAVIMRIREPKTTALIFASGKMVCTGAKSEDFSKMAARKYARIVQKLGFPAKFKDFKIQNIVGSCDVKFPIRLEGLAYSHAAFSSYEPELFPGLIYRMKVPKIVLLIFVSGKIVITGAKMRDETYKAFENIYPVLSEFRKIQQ

Set 1
Cell line: HEK-293T-ACE2
Tested at: concentration not given
Reference: vehicle
SMILES | cell number [%]
Br.Cc1ccc(Sc2ccccc2N2CCNCC2)c(C)c1 | 94.5
Cc1[nH]c2ccccc2c1CCNCc1ccc(/C=C/C(=O)NO)cc1 | 36.5
CC1(C)CCC(CN2CCN(c3ccc(C(=O)NS(=O)(=O)c4ccc(NCC5CCOCC5)c([N+](=O)[O-])c4)c(Oc4cnc5[nH]ccc5c4)c3)CC2)=C(c2ccc(Cl)cc2)C1 | 2.73
CC(C)C(=O)OCC(=O)[C@@]12O[C@H](C3CCCCC3)O[C@@H]1C[C@H]1[C@@H]3CCC4=CC(=O)C=C[C@]4(C)[C@H]3[C@@H](O)C[C@@]12C | 70.4

Set 2
Target: Replicase polyprotein 1ab, nsp13 helicase (rep, Severe acute respiratory syndrome coronavirus 2, UniProt P0DTD1)
Mode: inhibitor
Tested at: 20 µM
SMILES | inhibition [%]
COC[C@H]1OC(=O)c2coc3c2[C@@]1(C)C1=C(C3=O)[C@@H]2CCC(=O)[C@@]2(C)C[C@H]1OC(C)=O | 7.69
CCOC(=O)[C@@](C)(N)Cc1ccc(O)c(O)c1 | 3.56
CN(C)c1ccc(/C=C2\CCCN=C2c2cccnc2)cc1 | 12.6
O=S1(=O)OC(c2ccc(O)cc2)(c2ccc(O)cc2)c2ccccc21 | 2.19
COc1cc(F)c(F)c(Nc2ccc(I)cc2F)c1NS(=O)(=O)C1(C[C@H](O)CO)CC1 | -2.01
O=C(CCCl)NCCc1ccccc1 | -0.88
CC(C)(C)C(=O)OCC(=O)[C@H]1CC[C@H]2[C@@H]3CCC4=CC(=O)CC[C@]4(C)[C@H]3CC[C@]12C | 12.2
C[C@@]12CCc3occc3[C@H]1CC[C@@]13C[C@@H](CC[C@H]12)[C@@](O)(CO)C3 | -2.33
NC(=O)c1nc(Nc2ccccc2)sc1NC(=O)C1CCCCC1 | 2.65
CC(=O)C1=C(O)C=C2Oc3c(C(C)=O)c(O)c(C)c(O)c3C2(C)C1=O (single isomer, unassigned; (+)) | 3.9
CC#CCC(C)[C@H](O)/C=C/[C@@H]1[C@H]2C/C(=C/CCCC(=O)O)C[C@H]2C[C@H]1O (stereo partly shown) | 10
CC(C)/N=c1\cc2n(-c3ccc(Cl)cc3)c3ccccc3nc-2cc1Nc1ccc(Cl)cc1 | 4.72
CC(C)(C)OC(=O)N[C@H]1CCCCC/C=C\[C@@H]2C[C@@]2(C(=O)NS(=O)(=O)C2CC2)NC(=O)[C@@H]2C[C@@H](OC(=O)N3Cc4cccc(F)c4C3)CN2C1=O | 5.54
CC(C)c1noc(N2CCC(COc3ccc(-c4ccc(S(C)(=O)=O)cc4)nc3)CC2)n1 | 0.46
CC(C)(S)[C@@H](N)C(=O)O | -4.28
O=C(O)c1ccccc1Nc1ccc(CCc2ccc(Cl)c(Cl)c2)cc1 | 7.76
O=C(O)c1ccc2nc(-c3cc(Cl)cc(Cl)c3)oc2c1 | 5.94
CC1(C)O[C@@H]2C[C@H]3[C@@H]4CCC5=CC(=O)C=C[C@]5(C)[C@@]4(F)[C@@H](O)C[C@]3(C)[C@]2(C(=O)CO)O1 | 4.62
O=C(c1ccc(Cl)cc1)N(Cc1ccccc1)C1CCCCC1 | 0.68
Cc1ccc(S(=O)(=O)/C=C/C#N)cc1 | 99.2
CCC(C/C=C/c1ccccc1)(c1ccccc1)N(C)CC1CC1 (stereo not shown) | 9.36
CN1C(=O)COc2c(C(=O)NC3CN4CCC3CC4)cc(Cl)cc21 (stereo not shown) | 3.89
CC1(C)Oc2ccc(C#N)cc2[C@@H](OC2=CC(=O)CC2)[C@@H]1O | -5.97
CC(C)[C@H](CO)Nc1nc(Nc2ccc(C(=O)O)c(Cl)c2)c2ncn(C(C)C)c2n1 | 2.82
CCN(CC)S(=O)(=O)c1ccc(C(=O)O)cc1 | 8.64

Set 3
Target: Sal-like protein 4, full length isoform B (SALL4, Homo sapiens, UniProt Q9UJQ4-2, residues 1-616)
Technique: universal PBM
Molecule type: double-stranded DNA, one strand shown
Sample: in vitro
Tested at: not given
Setting: 8-mer, flanks averaged, mean of replicates
Reading: higher = stronger binding
Sequence | E-score
AAACCGGC | -0.36
CTGGATTA | 0.131
ATTTGCTG | 0.216
AGCGATAA | 0.0759
GTCATACA | 0.268
GCGGCTGA | -0.291
ATAACTGG | 0.187
CACGCCTA | -0.011

Set 4
Target: Replicase polyprotein 1ab, main protease (rep, Severe acute respiratory syndrome coronavirus 2, UniProt P0DTD1)
Observed: enzyme activity
Mode: inhibitor
Tested at: 20 µM
Setting: hit confirmation, no DTT
SMILES | inhibition
O=c1c(O)cccc2cc(O)c(O)c(O)c12 | 111%
CC1(C)C(/C=C/C=C/C=C/C=C2\N(CCCCS(=O)(=O)[O-])c3ccc4ccccc4c3C2(C)C)=[N+](CCCCS(=O)(=O)[O-])c2ccc3ccccc3c21.[Na+] | 60%
COc1ccc2[nH]c([S@@+]([O-])Cc3ncc(C)c(OC)c3C)nc2c1 | 99.1%

Set 5
Target: Histone acetyltransferase KAT6A, winged helix 1, GST fusion (KAT6A, Homo sapiens, UniProt Q92794, residues 1-85)
Technique: protein binding microarray
Molecule type: double-stranded DNA, one strand shown
Sample: in vitro
Tested at: not given
Setting: 8-mer, flanks averaged, mean of 2 arrays, mostly near background
Reference: not given
Reading: higher = stronger binding
Residues (chain): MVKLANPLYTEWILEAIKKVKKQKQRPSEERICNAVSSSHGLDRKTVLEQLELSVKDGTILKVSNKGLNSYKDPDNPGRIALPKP
Sequence | E-score
ACCTCGCT | 0.098
CATCTATA | -0.0904
GCCAGGTA | -0.027
ATTGTTAC | -0.0209
AATCGATT | -0.0177
AAGTACAC | -0.17
CATATACG | 0.0606
TACTGGCA | -0.141

Mixed results
Technique: protein-binding microarray
Molecule type: double-stranded DNA, one strand shown
Sample: in vitro
Tested at: not given
Setting: k-mer, scored over probes, only values ≥0.25
Reading: higher = stronger binding
MITF full length: Microphthalmia-associated transcription factor, full length (MITF, Homo sapiens, UniProt O75030-10, residues 1-413)
Sequence | target | E-score
CTCGTGC | MITF full length | 0.449
CGATCAC | MITF full length | 0.262
ATCGCCCC | Transcription factor Sp1 (SP1, Homo sapiens, UniProt P08047, residues 1-785, full length assumed) | 0.276
AATAAGG | TATA-box-binding protein 1 (TBP1, Arabidopsis thaliana, UniProt P28147, residues 1-200, full length assumed) | 0.27

Repeated from above (set 2):
SMILES | inhibition [%]
C[C@@]12CCc3occc3[C@H]1CC[C@@]13C[C@@H](CC[C@H]12)[C@@](O)(CO)C3 | -2.33
CC(C)c1noc(N2CCC(COc3ccc(-c4ccc(S(C)(=O)=O)cc4)nc3)CC2)n1 | 0.46
CC(C)(C)OC(=O)N[C@H]1CCCCC/C=C\[C@@H]2C[C@@]2(C(=O)NS(=O)(=O)C2CC2)NC(=O)[C@@H]2C[C@@H](OC(=O)N3Cc4cccc(F)c4C3)CN2C1=O | 5.54
